# Experimental data pooled from the literature.
# Parts stem from different laboratories: compare values within a part only.
# UniProt O15294, sequence (whole entry, looked up): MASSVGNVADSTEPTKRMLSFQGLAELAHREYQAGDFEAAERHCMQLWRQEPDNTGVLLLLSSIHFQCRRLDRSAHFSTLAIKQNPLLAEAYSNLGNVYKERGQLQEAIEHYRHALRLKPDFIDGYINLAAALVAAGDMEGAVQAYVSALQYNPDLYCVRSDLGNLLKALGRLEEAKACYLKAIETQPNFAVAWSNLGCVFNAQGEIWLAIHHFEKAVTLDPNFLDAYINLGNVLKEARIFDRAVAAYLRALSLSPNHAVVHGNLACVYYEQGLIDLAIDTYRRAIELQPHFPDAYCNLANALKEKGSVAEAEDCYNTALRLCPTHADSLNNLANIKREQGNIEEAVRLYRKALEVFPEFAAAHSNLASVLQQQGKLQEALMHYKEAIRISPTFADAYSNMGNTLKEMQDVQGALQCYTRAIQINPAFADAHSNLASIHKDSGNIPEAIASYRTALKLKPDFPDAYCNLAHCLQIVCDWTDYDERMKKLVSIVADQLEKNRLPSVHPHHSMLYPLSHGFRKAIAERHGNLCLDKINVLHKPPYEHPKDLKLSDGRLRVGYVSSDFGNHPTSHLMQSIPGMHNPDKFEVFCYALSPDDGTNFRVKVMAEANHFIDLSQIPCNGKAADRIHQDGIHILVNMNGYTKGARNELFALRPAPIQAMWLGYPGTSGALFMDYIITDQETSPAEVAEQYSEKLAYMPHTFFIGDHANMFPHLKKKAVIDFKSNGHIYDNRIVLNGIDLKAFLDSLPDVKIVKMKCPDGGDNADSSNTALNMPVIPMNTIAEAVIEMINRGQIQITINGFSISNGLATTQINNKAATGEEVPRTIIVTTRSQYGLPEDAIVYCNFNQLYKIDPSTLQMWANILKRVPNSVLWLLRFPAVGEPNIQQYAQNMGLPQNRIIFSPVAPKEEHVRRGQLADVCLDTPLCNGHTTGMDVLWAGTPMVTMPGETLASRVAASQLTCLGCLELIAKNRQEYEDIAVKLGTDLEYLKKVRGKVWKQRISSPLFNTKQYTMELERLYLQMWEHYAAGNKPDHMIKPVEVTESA

# Set 1
# Target: RNA binding protein fox-1 homolog 2, RRM domain, GST-SBP tag (RBFOX2, Homo sapiens, UniProt O43251-10, residues 100-194)
# Technique: RNA Bind-n-Seq
# Molecule type: RNA
# Medium: in vitro
# Tested at: 365 nM
# Notes: natural RNA segment, single round, ends assumed
# Baseline: no-protein control
# Direction: higher = stronger binding
# Shared flanks, not repeated: GGGAGUUCUACAGUCCGACGAUC … UGGAAUUCUCGGGUGCCAA
# Construct (chain): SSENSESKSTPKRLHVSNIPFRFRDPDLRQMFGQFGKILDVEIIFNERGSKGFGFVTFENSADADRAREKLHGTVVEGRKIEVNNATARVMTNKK
Sequence,RBNS enrichment (R)
GCUCCUCUAGUUCCAGCUCGUCAGACUCGGACUCAGAGUGUGAAUCUGGGUCAGAAGGUGAUGGGACGACACACCGCAGGAAGAAGAGGAGAACCUGCAGCAUGGUGGGA,7.07
AGUAUGGGGGAAAAGGGUCGAGUUAGAACAAAGCUAAGGCAAUUCCUAUUGCUUCCUUGCGCAACUUCUCAAAACGAUGAAAGUCAGAAGGCUGUCAAACUCAAAUAUCU,0.297
GUAGUUUGUAUAGCCUCAACAACAAUUUUAAAUAAGAUGGAGAAUAAAUUAUUGAGGGGACUAGGCUAUAUGCAUUUGCCUUCAUCCACCCAUGUUUAUUAAGAAUCAUU,1.09
AGCUCAGUGAUGUUCCAGCUCCUGGCUAGGCUGCUCAGCCACUCAGCUAGACAAAAGAUCUGUGCCCUGUGUUUCAUCCCAGAGCUUGUUGCCAGAUCACAUGGCUGGAU,0.65
GGGUGCUCUGUUUCCCCACCGUUCCCAGGUGUACGAGGCAGAGGGCCGGGACAGCUUUCCUCUCAGUCAUUGUUCACCCCACUUGAAAAUUCAGACAAGAAAACUUUGCU,0.464
GUUGGUAUAGAAAUGUCUAAAUCCUAUACUCUAGUUGAGGAAGAUCUUCCAUAAUUUUAUGGUAUUACACAGGGAAAGCUAUGACUGCAGGAUCAGUCUAACUAUACUAU,0.522
CCAGCCUCUGUGACAGUGACUCCCUCUCCCCUUGUACAUACUCUCACACAGGUUCCCCUUGUACAUACAUGCACAUACACACCCAAACACACAUAGAGGACUCUGGAGCC,1.31
GGUUCAGACCCGGGCAGCUCAGCUACCUCCUUCUACAUGGAGGUGGCCCUGGUCCCACCUCUAAUCCCUACUGUCAUCAGGCACUACAGCCCAAAAAGAGGUGCUUGUGA,0.246

# Set 2
# Target: Histone acetyltransferase KAT6A, winged helix 2, GST fusion (KAT6A, Homo sapiens, UniProt Q92794, residues 85-181)
# Technique: protein binding microarray
# Molecule type: double-stranded DNA, one strand shown
# Medium: in vitro
# Tested at: not given
# Notes: 8-mer, flanks averaged, mean of 2 arrays, mostly near background
# Baseline: not given
# Direction: higher = stronger binding
# Target sequence (chain): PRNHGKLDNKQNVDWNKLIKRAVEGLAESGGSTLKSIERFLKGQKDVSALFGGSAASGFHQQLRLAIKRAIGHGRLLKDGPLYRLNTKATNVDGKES
Sequence,E-score
ACTTGACG,-0.113
CTCGGCCA,0.288
ACCTGGAG,0.013
GCATTGAC,-0.0374
CCAAGCAA,-0.0122
TTCATCAA,0.0513
CTCGAGAC,0.0878
CCTACCGC,0.153

# Set 3
# Target: Sal-like protein 4, full length isoform B (SALL4, Homo sapiens, UniProt Q9UJQ4-2, residues 1-616)
# Technique: universal PBM
# Molecule type: double-stranded DNA, one strand shown
# Medium: in vitro
# Tested at: not given
# Notes: 8-mer, flanks averaged, mean of replicates
# Direction: higher = stronger binding
Sequence,E-score
ACTCCTTA,0.114
GGTCGTAC,-0.199
GGTGTCAC,-0.16
GACAGACC,-0.203
CCTGGTGA,-0.199
CTCGTACA,0.00344
GCATCCGC,-0.123
CCAGTTGA,-0.146

# Mixed results
Sequence,target,observed,technique,molecule type,baseline,quantity,value
YVDWGVWHKDFNMPH,"UDP-N-acetylglucosamine--peptide N-acetylglucosaminyltransferase 110 kDa subunit (OGT, Homo sapiens, UniProt O15294)",binding,phage display NGS,peptide,input library,minimum log2 enrichment ratio,1.2

# Excerpt of the above (set 1):
Sequence,RBNS enrichment (R)
GGGUGCUCUGUUUCCCCACCGUUCCCAGGUGUACGAGGCAGAGGGCCGGGACAGCUUUCCUCUCAGUCAUUGUUCACCCCACUUGAAAAUUCAGACAAGAAAACUUUGCU,0.464
GUAGUUUGUAUAGCCUCAACAACAAUUUUAAAUAAGAUGGAGAAUAAAUUAUUGAGGGGACUAGGCUAUAUGCAUUUGCCUUCAUCCACCCAUGUUUAUUAAGAAUCAUU,1.09
GCUCCUCUAGUUCCAGCUCGUCAGACUCGGACUCAGAGUGUGAAUCUGGGUCAGAAGGUGAUGGGACGACACACCGCAGGAAGAAGAGGAGAACCUGCAGCAUGGUGGGA,7.07
GGUUCAGACCCGGGCAGCUCAGCUACCUCCUUCUACAUGGAGGUGGCCCUGGUCCCACCUCUAAUCCCUACUGUCAUCAGGCACUACAGCCCAAAAAGAGGUGCUUGUGA,0.246
